Published values from different studies.
Protocols differ between the studies behind these lines. ± marks the error that the study gave.
B1: enzyme A172S/A173G/C179K/M174T/Q178P (Streptomyces platensis, UniProt A0A0A0V031); chain MQHTTIGDVLREHRRSHPGRTALVDGPVRLTWPELDDRVNRLAGSLAASGIGRGDRIMWLGQNSFRVYELIAAAGKLGAMVCVGYWRWAPPEMEFALRDFDPHLVVWQHQEIHETVARTREALGSDDTARWLRHDSAPQDPDGYEAFLAAGGLADPDLDIDPDSPVLVLYTSGTSGRPKGSLLSHTNLIAMATAAAWLGDIDHTTAFLNSGPMFHIGNHQFWGMPTLLMAGKNVIVRRVVAEEVRDLLVAEECTHAFLMPPTVAEIVRLNRDTGHDLSRLRATVAPHLWEGMATTDTSRFTRSGAAAGRGYGQTELSGFAVTAAYGGPAAGNAGRPGPGLTVRVLDTAGRECAVGEAGEICARGTVVHRGYWNRDEVNAHRFRSGWWHTTDLGRREPDGSLTFLGTTTRMLKSAAENIFPAEVENCIEQHPAVREAAVIGVPNTRWAQDVKAVVVLEPDAGVSEQEIIDHCRPRIASYKKPKSVAFAAALPRTVSGARDYDALDKEYGGGGYPGAATLGPGR
Sequence of UniProt P21729 (whole entry, looked up): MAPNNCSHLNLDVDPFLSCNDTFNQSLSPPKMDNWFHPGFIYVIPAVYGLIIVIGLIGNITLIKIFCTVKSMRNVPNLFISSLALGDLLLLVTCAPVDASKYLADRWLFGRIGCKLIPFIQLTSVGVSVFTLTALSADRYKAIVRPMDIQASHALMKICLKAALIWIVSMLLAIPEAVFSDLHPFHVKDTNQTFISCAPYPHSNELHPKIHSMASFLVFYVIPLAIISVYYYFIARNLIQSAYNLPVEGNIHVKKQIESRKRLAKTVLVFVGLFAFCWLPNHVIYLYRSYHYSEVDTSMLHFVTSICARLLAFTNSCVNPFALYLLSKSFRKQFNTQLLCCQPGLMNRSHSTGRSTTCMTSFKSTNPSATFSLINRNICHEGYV

Molecule	tested on	test	test system	conditions	how to read	quantity	value
N=C(N)NCCC[C@@H]1NC(=O)[C@H](CCCCNC(=O)CCOCCOCCOCCOCCNC(=O)CN2CCN(CC(=O)O)CCN(CC(=O)O)CCN(CC(=O)O)CC2)NC(=O)[C@@H](Cc2ccccc2)NC(=O)[C@H](CC(=O)O)NC(=O)CNC1=O [indium-111 labelled]	–	–	female athymic nude mice, lungs	intravenous, 3 µCi, 24 h, U-87 MG glioma xenograft	–	tissue uptake	0.3 ± 0.06 %ID/g
CC(C)C[C@H](NC(=O)[C@@H]1CCCN1C(=O)[C@H](CCCCN)NC(=O)[C@@H](N)CO)C(=O)N1CCC[C@H]1C(=O)N[C@@H](CCC(=O)O)C(=O)N[C@H](C(=O)N[C@H](C(=O)N[C@@H](CC(=O)O)C(=O)N[C@@H](CCC(=O)O)C(=O)N[C@@H](Cc1ccc(O)cc1)C(=O)N[C@@H](Cc1cn(CCOCCOCCOCCNC(=O)CCc2ccc(O)c(CN(CCN(CC(=O)O)Cc3cc(CCC(=O)NCCCC[C@H](NC(=O)N[C@@H](CCC(=O)O)C(=O)O)C(=O)O)ccc3O)CC(=O)O)c2)nn1)C(=O)O)[C@@H](C)O)C(C)C [gallium-68 labelled]	–	–	NMRI nu/nu mice, LNCaP tumour, pancreas	135.34 nmol/kg, low molar activity	–	standardized uptake value	0.05 g/g
C=Cc1c(C)c2cc3nc(c4c5[nH]c(cc6nc(cc1[nH]2)C(C)=C6CC)c(C)c5C(=O)C4)[C@@H](CCC(=O)NCC(=O)N1CCC[C@H]1C(=O)N[C@@H](CC(C)C)C(=O)NCC(=O)N[C@@H](Cc1ccccc1)C(=O)N[C@@H](CCCNC(=N)N)C(=O)N[C@H](C(=O)NCC(=O)N[C@@H](CCCCN)C(N)=O)C(C)C)[C@@H]3C	OA patient synovial fibroblasts	flow cytometry	–	1 µM, 24 h	relative to: untreated	mean fluorescence intensity	55 ± 6 times
CCCC[C@H](NC(=O)CNC(=O)CNC(=O)c1ccc(NN)nc1)C(=O)N[C@H]1CC(=O)NCCCC[C@@H](C(N)=O)NC(=O)[C@H](Cc2c[nH]c3ccccc23)NC(=O)[C@H](CCCNC(=N)N)NC(=O)[C@@H](Cc2ccccc2)NC(=O)[C@H](Cc2c[nH]cn2)NC1=O [technetium-99m labelled]	–	–	C57 mouse, B16/F1 melanoma	2 h, together with: L-lysine	relative to: tumour over kidney	uptake ratio	3.23
N=C(N)NCCC[C@@H]1NC(=O)[C@H](CCCCNC(=O)CNC(=O)CNC(=O)CNC(=O)CC[C@H](NC(=O)CCOCCOCCOCCOCCNC(=O)CC[C@H](NC(=O)CN2CCN(CC(=O)O)CCN(CC(=O)O)CCN(CC(=O)O)CC2)C(=O)NCCOCCOCCOCCOCCC(=O)N[C@@H](CCC(=O)NCC(=O)NCC(=O)NCC(=O)NCCCC[C@@H]2NC(=O)[C@@H](Cc3ccccc3)NC(=O)[C@H](CC(=O)O)NC(=O)CNC(=O)[C@H](CCCNC(=N)N)NC2=O)C(=O)NCC(=O)NCC(=O)NCC(=O)NCCCC[C@@H]2NC(=O)[C@@H](Cc3ccccc3)NC(=O)[C@H](CC(=O)O)NC(=O)CNC(=O)[C@H](CCCNC(=N)N)NC2=O)C(=O)NCC(=O)NCC(=O)NCC(=O)NCCCC[C@@H]2NC(=O)[C@@H](Cc3ccccc3)NC(=O)[C@H](CC(=O)O)NC(=O)CNC(=O)[C@H](CCCNC(=N)N)NC2=O)NC(=O)[C@@H](Cc2ccccc2)NC(=O)[C@H](CC(=O)O)NC(=O)CNC1=O [indium-111 labelled]	–	–	female athymic nude mice, liver	intravenous, 3 µCi, 1 h, U-87 MG glioma xenograft	–	tissue uptake	2.36 ± 0.27 %ID/g
B1	C[C@@]12CCC[C@@](C)(C(=O)OP(=O)(O)OC[C@H]3O[C@@H](n4cnc5c(N)ncnc54)[C@H](O)[C@@H]3O)[C@H]1C[C@@H](O)[C@]13C[C@H]4C[C@H](O[C@@]4(C)C1)[C@@H]23	steady-state kinetics	–	pH 7.8, 25 °C	–	Km	0.58 µM
COC(=O)[C@H](CSSC(C)(C)[C@H](NC(=O)[C@H](CCC(=O)NC[C@H](O)[C@@H](O)[C@H](O)[C@H](O)CO)NC(=O)[C@H](CCC(=O)O)NC(=O)[C@H](CCC(=O)NC[C@H](O)[C@@H](O)[C@H](O)[C@H](O)CO)NC(=O)[C@H](CCC(=O)O)NC(=O)[C@H](CCC(=O)NC[C@H](O)[C@@H](O)[C@H](O)[C@H](O)CO)NC(=O)CC[C@H](NC(=O)c1ccc(NCc2cnc3nc(N)[nH]c(=O)c3n2)cc1)C(=O)O)C(=O)O)NC(=O)CC[C@H](NC(=O)c1ccc(NCc2cnc3nc(N)[nH]c(=N)c3n2)cc1)C(=O)O	–	–	Lewis rat, female, plasma	subcutaneous, 500 nmol/kg	–	Cmax	0.682 µM
CCCC[C@H](NC(=O)CCCCCCCNC(=O)c1ccc(NN)nc1)C(=O)N[C@H]1CC(=O)NCCCC[C@@H](C(N)=O)NC(=O)[C@H](Cc2c[nH]c3ccccc23)NC(=O)[C@H](CCCNC(=N)N)NC(=O)[C@@H](Cc2ccccc2)NC(=O)[C@H](Cc2c[nH]cn2)NC1=O [technetium-99m labelled]	–	–	C57 mouse, B16/F1 melanoma, skin	intravenous, 24 h	–	uptake	0.15 ± 0.05 %ID/g
CCCNC(=O)[C@H](CC(C)C)NC(=O)[C@H](Cc1c[nH]cn1)NC(=O)CNC(=O)[C@@H](NC(=O)[C@H](C)NC(=O)[C@H](Cc1c[nH]c2ccccc12)NC(=O)[C@H](CCC(N)=O)NC(=O)[C@@H](Cc1ccccc1)NC(=O)CCCCCNC(=O)CN1CCN(CC(=O)O)CCN(CC(=O)O)CCN(CC(=O)O)CC1)C(C)C [indium-111 labelled]	Gastrin-releasing peptide receptor (Mus musculus, UniProt P21729)	biodistribution	CF-1 mice, heart	intravenous, 1 h, together with: bombesin 100 µg, blocking	–	tissue uptake	0.13 ± 0.02 %ID/g

For quick reference, copied from above:
Molecule	tested on	test	test system	conditions	how to read	quantity	value
CCCC[C@H](NC(=O)CCCCCCCNC(=O)c1ccc(NN)nc1)C(=O)N[C@H]1CC(=O)NCCCC[C@@H](C(N)=O)NC(=O)[C@H](Cc2c[nH]c3ccccc23)NC(=O)[C@H](CCCNC(=N)N)NC(=O)[C@@H](Cc2ccccc2)NC(=O)[C@H](Cc2c[nH]cn2)NC1=O [technetium-99m labelled]	–	–	C57 mouse, B16/F1 melanoma, skin	intravenous, 24 h	–	uptake	0.15 ± 0.05 %ID/g
